{"data": "Published values from different studies", "note": "Lines come from different studies, so protocols differ. ± gives the spread as reported."}
{"SMILES": "Nc1ccn([C@@H]2O[C@H](CO)[C@@H](O)C2(F)F)c(=O)n1", "test system": "human, plasma", "conditions": "dose not given, mean, after paricalcitol", "AUC(0-inf)": "17800 ng·h/mL"}
{"SMILES": "N#Cc1cccc(-c2ccc3ncc(-c4cc(F)cc(F)c4)c(N4CCC(N)CC4)c3c2)c1O", "test system": "male human, plasma", "conditions": "oral, 20 mg single, geometric mean", "AUC(0-inf)": "2390 ng·h/mL"}
{"SMILES": "CC(C)c1nc(N(C)S(C)(=O)=O)nc(-c2ccc(F)cc2)c1/C=C/[C@@H](O)C[C@@H](O)CC(=O)O", "test system": "human, plasma", "conditions": "oral, 20 mg, day 2, geometric mean, alone", "AUC(0-inf)": "48.6 ng·h/mL"}
{"SMILES": "NC(=S)NN=Cc1ncccc1N", "test system": "human, plasma", "conditions": "intravenous, 50 mg, geometric mean", "AUC(0-inf)": "805 ng·h/mL"}
{"SMILES": "FC(F)(F)c1ccc(CNc2ccc(Cc3c[nH]c4ncc(Cl)cc34)cn2)cn1", "assay": "item: total radioactivity", "test system": "healthy human male, whole blood", "conditions": "oral, 400 mg [14C]-labelled", "AUC(0-inf)": "97400 ng·h/mL"}
{"SMILES": "Cn1cncc1[C@@](N)(c1ccc(Cl)cc1)c1ccc2c(c1)c(-c1cccc(Cl)c1)cc(=O)n2C", "test system": "healthy human, plasma", "conditions": "oral, 50 mg", "AUC(0-inf)": "417 ng·h/mL"}
{"SMILES": "NC[C@@]1(CC(=O)O)[C@@H]2CC[C@H]3C[C@@H]2[C@@H]1C3", "test system": "human, normal renal function, plasma", "conditions": "dose not given, geometric least squares mean", "AUC(0-inf)": "1790 ng·h/mL"}
{"SMILES": "CC(C)=CCC/C(C)=C/CC/C(C)=C/CC[C@@](C)(O)CCC1=C(C)C(=O)C(C)=C(C)C1=O", "test system": "healthy human, plasma", "conditions": "oral, 400 mg, together with: itraconazole 200 mg", "AUC(0-inf)": "11900 ng·h/mL"}
{"SMILES": "Cn1nnc2c(C(N)=O)ncn2c1=O", "test system": "human patients, plasma", "conditions": "oral, 30 mg/m2, day 5, dose level DL4, median, together with: talazoparib 600 µg/m2", "AUC(0-inf)": "4830 ng·h/mL"}
{"SMILES": "Cc1[nH]c(/C=C2\\C(=O)Nc3ccc(F)cc32)c(C)c1C(=O)N[C@H]1CCN(C(=O)N(C)C)C1", "test system": "human patients, plasma", "conditions": "oral, 200 mg single dose, together with: everolimus 5 mg", "AUC(0-inf)": "18500 ± 17500 ng·h/mL"}
{"SMILES": "N#CN1C[C@H](n2nc(-c3ccc(Oc4ccc(Cl)cn4)cc3)c(C(N)=O)c2N)CCC12CC2", "test system": "human, fed, plasma", "conditions": "oral, 600 mg", "AUC(0-inf)": "20400 ± 7160 ng·h/mL"}
{"SMILES": "Cl.O=C(NC1CCOCC1)c1csc([C@@H]2C[C@H]2NCC2CC2)c1", "test system": "human, fed, plasma", "conditions": "oral, 30 mg single dose", "AUC(0-inf)": "638 ng·h/mL"}
{"SMILES": "CC1(C)CC[C@]2(NC(=O)C(C)(F)F)CC[C@]3(C)[C@H](C(=O)C=C4[C@@]5(C)C=C(C#N)C(=O)C(C)(C)[C@@H]5CC[C@]43C)[C@@H]2C1", "test system": "human, plasma", "conditions": "oral, 150 mg single dose, alone, geometric mean", "AUC(0-inf)": "1380 ng·h/mL"}
{"SMILES": "N[C@@H]1c2cccnc2[C@H](OC(=O)N2CCC(n3c(=O)[nH]c4ncccc43)CC2)CC[C@H]1c1cccc(F)c1F", "test system": "human, plasma", "conditions": "oral, dose not given, single dose, mean, together with: fluconazole", "AUC(0-inf)": "9570 ng·h/mL"}
{"SMILES": "C=CC(=O)N(C)CCOc1c(N)ncnc1-c1cc(F)cc(NC(=O)c2ccc(C3CC3)cc2F)c1C", "test system": "human, fed, whole blood", "conditions": "oral, 60 mg single dose, food effect study, mean", "AUC(0-inf)": "214 ng·h/mL"}
{"SMILES": "CN[C@@H](C)C(=O)N[C@H]1CN(S(=O)(=O)c2cccc(S(=O)(=O)N3CC[C@H]4CC[C@@H](C(=O)NC(c5ccccc5)c5ccccc5)N4C(=O)[C@@H](NC(=O)[C@H](C)NC)C3)c2)CC[C@H]2CC[C@@H](C(=O)NC(c3ccccc3)c3ccccc3)N2C1=O", "assay": "LC-MS/MS, noncompartmental", "test system": "human, plasma", "conditions": "20 mg, cycle 1 day 1", "AUC(0-inf)": "168 ng·h/mL"}
{"SMILES": "Cn1cncc1[C@@](N)(c1ccc(Cl)cc1)c1ccc2c(c1)c(-c1cccc(Cl)c1)cc(=O)n2C", "test system": "human, without dose-limiting toxicity, plasma", "conditions": "oral, dose not given, median", "AUC(0-inf)": "5360 ng·h/mL"}
{"SMILES": "COc1cc(C(=O)NC2CCN(C)CC2)c(F)cc1Nc1ncc(C(F)(F)F)c(Oc2cccc3c2C(=O)N(C)C3)n1", "test system": "human, Japanese, plasma", "conditions": "oral, 200 mg single dose, geometric mean", "AUC(0-inf)": "29 µM·h"}
{"SMILES": "Cc1cccc(F)c1N1CCC(N2Cc3cn(CC(C)(F)F)nc3N(Cc3ccccc3C(F)(F)F)C2=O)CC1", "test system": "human healthy subjects, plasma", "conditions": "oral, 100 mg, single dose, fed, geometric mean", "AUC(0-inf)": "5430 ng·h/mL"}
{"SMILES": "Cn1cc(-c2ccc(S(=O)(=O)[C@@H]3C[C@@H](C(=O)NC4(C#N)CC4)N(C(=O)C4(C(F)(F)F)CC4)C3)c(C(F)(F)F)c2)cn1", "assay": "noncompartmental", "test system": "human, both sexes, plasma", "conditions": "oral, 100 mg once daily, day 1, with food, single dose", "AUC(0-inf)": "12500 ng·h/mL"}
{"SMILES": "N[C@@H](CC(=O)N1CCn2c(nnc2C(F)(F)F)C1)Cc1cc(F)c(F)cc1F", "test system": "female human, plasma", "conditions": "oral, 100 mg single dose", "AUC(0-inf)": "3680 ± 355 ng·h/mL"}
{"SMILES": "Cn1c(=O)oc2ccc(-c3ccc(C[C@@H](C#N)NC(=O)[C@@H]4CNCCCO4)cc3)cc21", "test system": "human, severe renal impairment, plasma", "conditions": "oral, 25 mg single dose, geometric least squares mean", "AUC(0-inf)": "2640 ng·h/mL"}
{"SMILES": "CC(=O)O[C@H]1C(=O)[C@@]2(C)[C@H]([C@H](OC(=O)c3ccccc3)[C@]3(O)C[C@H](OC(=O)[C@H](O)[C@@H](NC(=O)c4ccccc4)c4ccccc4)C(C)=C1C3(C)C)[C@]1(OC(C)=O)CO[C@@H]1C[C@@H]2O", "assay": "noncompartmental analysis", "test system": "human cancer patients, plasma", "conditions": "intravenous infusion, 80 mg/m^2, cycle 1 day 1, together with: daily oral co-medication", "AUC(0-inf)": "4590 ng·h/mL"}
{"SMILES": "C[C@@H](Oc1ccc(S(C)(=O)=O)cc1C(=O)N1C[C@@H]2C[C@]2(c2cc(C(F)(F)F)on2)C1)C(F)(F)F", "test system": "elderly humans, plasma", "conditions": "oral, 50 mg once daily, single dose, geometric mean", "AUC(0-inf)": "16 µM·h"}
{"SMILES": "Cc1cc(C)c(CNC(=O)c2cc(Cl)c3c(c2C)O[C@@](C)([C@H]2CC[C@H](N(C)C)CC2)O3)c(=O)[nH]1", "test system": "healthy male human, plasma", "conditions": "oral, 25 mg, alone, before fluconazole", "AUC(0-inf)": "686 ng·h/mL"}
{"SMILES": "C#Cc1cccc(Nc2ncnc3cc(OCCOC)c(OCCOC)cc23)c1", "test system": "human, plasma", "conditions": "oral, 50 mg, day 1", "AUC(0-inf)": "18.4 ± 8.34 µM·h"}
{"SMILES": "CCCCOc1nc(N)c2c(n1)N(Cc1cccc(CN3CCCC3)c1)CC(=O)N2", "test system": "human", "conditions": "oral, 2 mg, mean", "AUC(0-inf)": "17.6 ng·h/mL"}
{"SMILES": "O=C(O)CCC(=O)O.[2H]C([2H])([2H])Oc1cc(C)c2[nH]ccc2c1CN1CC[C@@H](C2CC2)C[C@H]1c1ccc(C(=O)O)cc1", "assay": "LC-MS/MS, geometric mean", "test system": "human, plasma", "conditions": "100 mg, single dose, fasting", "AUC(0-inf)": "57900 ng·h/mL"}
{"SMILES": "C=CC(=O)NC1CCN(c2ncc3ncnc(Nc4ccc(Oc5ccc6c(c5)ncn6C)c(C)c4)c3n2)CC1", "test system": "human male, plasma", "conditions": "oral, 60 mg single dose, geometric mean, together with: carbamazepine multiple doses", "AUC(0-inf)": "4.5 µM·h"}
{"SMILES": "CC[C@H](Nc1ncnc2[nH]cnc12)c1oc2ccccc2c(=O)c1-c1cccc(F)c1", "test system": "human, plasma", "conditions": "oral, 800 mg twice daily, together with: romidepsin 14 mg/m2", "AUC(0-inf)": "99000 ± 122000 ng·h/mL"}
{"SMILES": "CC(C)[C@@H]1CC[C@@H](C)C[C@H]1OC(=O)O[C@@H](C)OC(=O)[C@H]1[C@@H]2C[C@H](F)[C@@](N)(C(=O)O)[C@@H]21", "test system": "human, plasma", "conditions": "oral, 20 mg single dose, fasted", "AUC(0-inf)": "86.9 ng·h/mL"}
{"SMILES": "O=C(O)c1cc(/N=N/c2ccc(S(=O)(=O)Nc3ccccn3)cc2)ccc1O", "assay": "LC-MS", "test system": "human, plasma", "conditions": "oral, 1000 mg, day 1", "how to read": "arithmetic mean", "AUC(0-inf)": "67900 ng·h/mL"}
{"SMILES": "COc1ccc([C@@H]2CN(C(=O)[C@@H](O)CO)C[C@@]2(C)[C@@H](C)O)cc1OC1CN(c2ccc(C)cn2)C1", "test system": "healthy human, plasma", "conditions": "oral, 20 mg", "AUC(0-inf)": "4740 ng·h/mL"}
{"SMILES": "CNC(=O)c1c(C)oc2cc(Oc3ncnc4cc(OC)c(OC)cc34)ccc12", "test system": "human, moderate hepatic impairment (Child-Pugh), plasma", "conditions": "oral, 2 mg, single dose", "AUC(0-inf)": "5210 ng·h/mL"}
{"SMILES": "CN(C(=O)C(C)(C)c1cc(C(F)(F)F)cc(C(F)(F)F)c1)c1cnc(N2C[C@H]3COCCN3C[C@H]2CO)cc1-c1ccc(F)cc1[14CH3]", "assay": "item: total radioactivity", "test system": "human, plasma", "conditions": "oral, 120 mg", "AUC(0-inf)": "21700 ng equiv·h/mL"}
{"SMILES": "CC1(COc2ccc3c(c2)ncn3-c2ccc3cccc(N4CCC(N)CC4)c3n2)COC1", "test system": "human patients, recurrent/progressive HGG or DIPG, serum", "conditions": "oral, 100 mg/m^2, day 1, median", "AUC(0-inf)": "3.98 µM·h"}
{"SMILES": "CC(C)c1nc(N(C)S(C)(=O)=O)nc(-c2ccc(F)cc2)c1/C=C/[C@@H](O)C[C@@H](O)CC(=O)O", "test system": "healthy human subjects, plasma", "conditions": "oral, 10 mg, geometric mean, together with: fruquintinib 5 mg", "AUC(0-inf)": "29.3 ng·h/mL"}
{"SMILES": "Cc1nc2ccc(F)cc2n1-c1nc(N)c(F)c(Nc2ccc(C(F)(F)F)cc2)n1", "test system": "human patients, plasma", "conditions": "oral, 200 mg twice weekly, cycles 1 and 2 pooled", "AUC(0-inf)": "16500 ng·h/mL"}
{"SMILES": "C[C@H]1CN(C(=O)CC#N)[C@]12CCN(c1ncnc3[nH]ccc13)C2", "test system": "healthy human, plasma", "conditions": "oral, 6 mg single, geometric mean", "AUC(0-inf)": "211 ng·h/mL"}
{"SMILES": "CN(CC#N)C(=O)C[C@H](Nc1nc2ccccc2[nH]1)c1cccc(C(F)(F)F)c1", "test system": "human", "conditions": "intravenous infusion, 2 mg/kg, 1 mg/mL formulation", "AUC(0-inf)": "11300 ± 664 ng·h/mL"}
{"SMILES": "N[C@](CO)(CCc1ccc(Sc2cccc(OCc3ccccc3)c2)cc1Cl)COP(=O)(O)O", "test system": "human, blood", "conditions": "3 mg, mean, together with: itraconazole 200 mg once daily", "AUC(0-inf)": "181 ng·h/mL"}
{"SMILES": "CCNCCCNC/C=C\\CNCCCNCC", "assay": "LC-MS/MS", "test system": "human cancer patients, plasma", "conditions": "intravenous infusion 60 min, 50 mg, median, cycle 1", "AUC(0-inf)": "80 ng·h/mL"}
{"note": "Some of these lines once more:"}
{"SMILES": "CC1(C)CC[C@]2(NC(=O)C(C)(F)F)CC[C@]3(C)[C@H](C(=O)C=C4[C@@]5(C)C=C(C#N)C(=O)C(C)(C)[C@@H]5CC[C@]43C)[C@@H]2C1", "test system": "human, plasma", "conditions": "oral, 150 mg single dose, alone, geometric mean", "AUC(0-inf)": "1380 ng·h/mL"}
{"SMILES": "CCCCOc1nc(N)c2c(n1)N(Cc1cccc(CN3CCCC3)c1)CC(=O)N2", "test system": "human", "conditions": "oral, 2 mg, mean", "AUC(0-inf)": "17.6 ng·h/mL"}
{"SMILES": "CN(CC#N)C(=O)C[C@H](Nc1nc2ccccc2[nH]1)c1cccc(C(F)(F)F)c1", "test system": "human", "conditions": "intravenous infusion, 2 mg/kg, 1 mg/mL formulation", "AUC(0-inf)": "11300 ± 664 ng·h/mL"}
{"SMILES": "Cc1nc2ccc(F)cc2n1-c1nc(N)c(F)c(Nc2ccc(C(F)(F)F)cc2)n1", "test system": "human patients, plasma", "conditions": "oral, 200 mg twice weekly, cycles 1 and 2 pooled", "AUC(0-inf)": "16500 ng·h/mL"}
{"SMILES": "NC(=S)NN=Cc1ncccc1N", "test system": "human, plasma", "conditions": "intravenous, 50 mg, geometric mean", "AUC(0-inf)": "805 ng·h/mL"}
